Experimental data of several laboratories.
Each numbered part is a random draw from the data of one study; scales do not carry over between parts.

Set 1
Target: RING finger protein unkempt homolog, zinc fingers 1-6, GST-SBP tag (UNK, Homo sapiens, UniProt Q9C0B0, residues 30-357)
Sequence of UniProt Q9C0B0 (30-357, looked up): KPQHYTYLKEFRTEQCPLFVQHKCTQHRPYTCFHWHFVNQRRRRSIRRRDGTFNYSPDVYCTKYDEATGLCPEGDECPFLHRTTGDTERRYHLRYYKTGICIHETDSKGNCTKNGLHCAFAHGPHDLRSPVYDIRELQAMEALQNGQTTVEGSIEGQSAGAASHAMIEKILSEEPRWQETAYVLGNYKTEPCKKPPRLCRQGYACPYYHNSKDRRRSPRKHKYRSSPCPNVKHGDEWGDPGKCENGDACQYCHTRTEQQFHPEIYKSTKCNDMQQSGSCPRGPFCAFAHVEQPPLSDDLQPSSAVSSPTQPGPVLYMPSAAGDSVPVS
Technique: RNA Bind-n-Seq
Molecule type: RNA
Matrix: in vitro
Tested at: not given
Notes: RNA with constant flanks, human and mouse sites, ends assumed
Relative to: input RNA pool
Direction: higher = stronger binding
Quantity: bound/input enrichment
Constant ends, left off below: GGGAGUUCUACAGUCCGACGAUC … CAACAGAGGAUUGAGCAUCA
Strand = GAAAAAGGUUGAUCUCACACACCUGGAGGGUGAAGUGGAAAAAAGAAAGCACGCUAUCGAAGAGGCAAAGGCCCAAGCCCGGGGCCUGUUGCCUGGGGGCACACAGGUGCUGGAUGGUAC; value = 0.34 ratio
Strand = AUGGUUCUUAAAGAUGUGGGAUUGAAAAAAGAAGAUAUUGCAAUGUGGGAAGUAAAUGAAGCCUUUAGUCUGGUUGUACUAGCAAACAUUAAAAUGUUGGAGAUUGAUCCCCAAAAAGUG; value = 0.534 ratio
Strand = CAGCCUGGGGACACAGCCAAGGCCGUGGUAGCCCAAGCUGUCCGUCAUCUCCCACAGUCUGUCAGGAUUUACAUCAGAGCCGCAGAGCUGGAAACGGACAUUCGUGCAAAGAAGCGGGUU; value = 0.179 ratio
Strand = AUUGUUGAAGCUAACCCACUCCUAGAAGCCUUUGGAAAUGCGAAGACUGUUCGCAACAAUAAUAGCAGUCGAUUUGGGAAAUUUGUAGAAAUACAUUUUAAUGAAAAGAGCUCAGUUGUU; value = 0.84 ratio
Strand = GUGACGUGCAAUGGAGUCCUCGUUAAUGCCGGUGAUAAGGUGCAGCAUGGAGCCGUGUACAGUUUGGAGCCCAGGCUUCGUGGGGGGAAAGGAGGUUUUGGGUCUAUGCUUCGAGCACUU; value = 0.188 ratio
Strand = UACCAGGGAAUCUGGAAACCCAGGAAAAUACCAAAUCCAGAUUUCUUUGAAGAUCUGGAACCUUUCAGAAUGACUCCUUUUAGUGCUAUUGGUUUGGAGCUGUGGUCCAUGACCUCUGAC; value = 0.871 ratio
Strand = AGCAGUCAUCUUAUCAAUCUUCUGAACCCUAAAGGAAAGCCAGCAAACCAGCUGCUUGCUCUCAGGACUUUUUGCAAUUGUUUUGUUGGCCAGGCAGGACAAAAACUCAUGAUGUCCCAG; value = 0.13 ratio
Strand = UAAUUUAAAAGAAUUACUAAUUCCCCUACCCCCAUCUGUGCUGAGGACAUUUCCCAGCCCUAGCUGGGGGAAAACAGCAUUUUCUUGAAGUGUGUGGCAUUAUCAAUGGGGAUUCAAAGU; value = 0.248 ratio
Strand = CCAGAAUGAUUCUGGGCAUAUACUAAGAAGAGCAGGUAUGGAAAGAUCUAUUGUCAGGGAAUCUUAGAAUUCCCUACACGAGUGGGAGAAAGAUGUCCAAAUUCCUUACGCAGUGGUAUU; value = 0.261 ratio
Strand = CACAUAAAAGCAAUUCAGAUUAAGGAGCAGCUCCUUGGCCAAGAAGAUUAUGAAGUGGCCCUUUCAGUGGGACACCUGGCAUCUCUGUAUAAUUAUGACAUGAAUCAGUAUGAAAAUGCU; value = 0.233 ratio
Strand = UGGAUGAAGCUCCUGCCGACCCUCACCUGACAAUCUGAGUUCUGUUCUUGGGACCCACGCGUGGAAGCAGGGAACAAACUCCUGCAAGUUGUCUUCUGAUCUUCACUUGUGUGCUGUGUC; value = 0.102 ratio

Set 2
Target: Histone acetyltransferase KAT6A, both winged helices, GST fusion (KAT6A, Homo sapiens, UniProt Q92794, residues 1-181)
Technique: protein binding microarray
Molecule type: double-stranded DNA, one strand shown
Matrix: in vitro
Tested at: not given
Notes: 8-mer, flanks averaged, mean of 2 arrays, mostly near background
Relative to: not given
Direction: higher = stronger binding
Quantity: E-score
Construct (chain): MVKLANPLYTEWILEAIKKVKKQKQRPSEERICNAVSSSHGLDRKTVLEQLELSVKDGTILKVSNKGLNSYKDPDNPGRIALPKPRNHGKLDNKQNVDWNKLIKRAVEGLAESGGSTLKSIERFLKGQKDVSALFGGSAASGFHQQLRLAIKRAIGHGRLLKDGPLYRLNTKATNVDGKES
Strand = ACCAAACC; value = -0.0307
Strand = CAGTATGG; value = -0.222
Strand = CAACGTAC; value = -0.0402
Strand = ACGCGAGA; value = 0.106
Strand = GTAGAGGA; value = -0.165
Strand = CAATCGAA; value = -0.027
Strand = TATTTCGA; value = 0.0916
Strand = ATTCCAAA; value = -0.104
Strand = CCTGAACC; value = -0.212
Strand = AAAACATA; value = 0.0641
Strand = AAATCCAG; value = -0.236
Strand = CGGCCTTC; value = 0.255
Strand = CCTTTCCA; value = -0.0456
Strand = CCTCCTCC; value = -0.239
Strand = CAATATCC; value = -0.0237
Strand = CCGACCTA; value = 0.0347
Strand = AAGTCACA; value = -0.133
Strand = AAGCGGAA; value = 0.205
Strand = CGACCCTA; value = -0.123
Strand = AGGTAGGC; value = -0.23

Set 3
Target: Interferon regulatory factor 7, full length, phosphomimetic (IRF7, Homo sapiens, UniProt Q92985, residues 1-503, S471D/S472D/S475D/S476D/S477D/S483D/S484D/S487D)
Technique: protein-binding microarray
Molecule type: double-stranded DNA, one strand shown
Matrix: in vitro
Tested at: 2200 nM top
Notes: 60-bp whole probe
Added: salmon DNA 0.4 mg/ml
Relative to: random background probes
Direction: higher = stronger binding
Quantity: fitted relative affinity
Constant ends, left off below: GCCTAGCAC … GTCTTGATTCGCTTGACGCTGCTG
Target sequence (chain): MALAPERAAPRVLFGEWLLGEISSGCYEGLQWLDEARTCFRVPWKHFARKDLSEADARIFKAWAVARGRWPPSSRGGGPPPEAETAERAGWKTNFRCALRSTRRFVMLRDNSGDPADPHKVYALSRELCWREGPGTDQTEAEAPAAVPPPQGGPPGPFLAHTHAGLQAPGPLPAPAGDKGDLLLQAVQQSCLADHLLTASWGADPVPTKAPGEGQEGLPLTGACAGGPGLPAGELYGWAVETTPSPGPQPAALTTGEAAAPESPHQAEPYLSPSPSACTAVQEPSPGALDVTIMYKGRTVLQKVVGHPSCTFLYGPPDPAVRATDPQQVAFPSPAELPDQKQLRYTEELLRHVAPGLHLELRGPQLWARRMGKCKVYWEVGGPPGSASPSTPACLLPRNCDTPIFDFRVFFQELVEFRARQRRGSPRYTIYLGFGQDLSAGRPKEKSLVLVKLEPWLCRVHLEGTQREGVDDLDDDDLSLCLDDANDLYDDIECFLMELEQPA
Strand = TTATGACTGGGTCTCGGTTAGTGCTAG; value = 0.373 z-score
Strand = TCATCTATGTCTGTTTTACTGTGCTAG; value = 2.07 z-score
Strand = TTAGATATCAGTATTGATTAGTGCTAG; value = -0.0269 z-score
Strand = TCAAGTTTTGAGCTCTGACTGTGCTAG; value = 0.47 z-score
Strand = TTAGGTTTCGGGTACCGGTTAGTGCTA; value = 5.52 z-score
Strand = CTAGATTTCAGTTTCGATTAGTGCTAG; value = 8.19 z-score
Strand = GACGGTCTCGGGCTCGGGACGTGCTAG; value = -0.636 z-score
Strand = GACGATTTCGGATATCGAGACGTGCTA; value = 1.41 z-score
Strand = GACGACCTCAGACTGGAGACGTGCTAG; value = -0.329 z-score
Strand = TTTATTTTCAGTATTACCTCGTGCTAG; value = 3.84 z-score
Strand = GACGGTTTCGGCACTGGGGACGTGCTA; value = 1.91 z-score
Strand = GACGAACTGAGTCTCGAGAAGTGCTAG; value = -0.397 z-score
Strand = TATTTTTTTTATTTATAAATGTGCTAG; value = 1.05 z-score
Strand = GGCGGTCTCGGTATCGGGACGTGCTAG; value = -0.179 z-score
Strand = GACGGTGTCGGACTGGGGACGTGCTAG; value = -0.756 z-score
Strand = GACGGGCTGGGTTTCGGGACGTGCTAG; value = 0.606 z-score
Strand = TTAGGTCTCCTACTGATTTAGTGCTAG; value = 0.359 z-score

Set 4
Target: Centromere-binding protein 1, full length, N-terminal tag (CBF1, Saccharomyces cerevisiae, UniProt P17106, residues 1-351)
Sequence of UniProt P17106 (whole entry, looked up): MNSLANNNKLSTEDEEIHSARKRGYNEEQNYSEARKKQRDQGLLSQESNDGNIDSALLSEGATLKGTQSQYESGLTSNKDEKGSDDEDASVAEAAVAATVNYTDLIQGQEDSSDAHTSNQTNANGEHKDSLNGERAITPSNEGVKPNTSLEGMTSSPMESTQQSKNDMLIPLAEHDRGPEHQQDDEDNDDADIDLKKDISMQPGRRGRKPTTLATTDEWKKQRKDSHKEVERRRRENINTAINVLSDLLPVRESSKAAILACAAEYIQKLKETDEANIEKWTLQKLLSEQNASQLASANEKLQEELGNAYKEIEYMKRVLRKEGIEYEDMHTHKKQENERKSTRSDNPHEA
Technique: protein-binding microarray
Molecule type: double-stranded DNA, one strand shown
Matrix: in vitro
Tested at: 0.8 µM
Notes: whole 60-bp probe, no competitor
Direction: higher = stronger binding
Quantity: fluorescence intensity
Constant ends, left off below: … GTCTTGATTCGCTTGACGCTGCTG
Strand = CTATTAGAAAGTACAAACGTGTCAGCGTATTTATTC; value = 543 a.u.
Strand = CTAAGGATAGGCAATGGTGACACTTCAACGCAATTC; value = 561 a.u.
Strand = CTAACGCGAACTAGTCACGATTGATCAAACTTTTTC; value = 629 a.u.
Strand = CTAAAAACATAATACATGGTGGTGGTGTCGTTGTTC; value = 542 a.u.
Strand = GAACTTCCCCTAGGTCACAACTTTTTTTCCCTCTAG; value = 592 a.u.
Strand = CTATTTCGTCTTTTTCATCTGATGACATTCTAGTTC; value = 583 a.u.
Strand = GAATTGATCACAATGCACGGAGACGCCCATTAATAG; value = 553 a.u.
Strand = GAAAAAAGTGTCCATGTGATGGGAGGGATCATATAG; value = 1780 a.u.
Strand = GAATCTTTAAGCGCTCTCGTGAGAGAATATCACTAG; value = 706 a.u.
Strand = CTAGCACAAAAAGCTGACATCAGGAAGAAAATCTTC; value = 499 a.u.
Strand = GAAATGATGCGGGATGGCGTGAACAAACCCATTTAG; value = 556 a.u.
Strand = CCTAACTACTATAGCTAGCTGATATAGCTTCGTACA; value = 524 a.u.
Strand = CCTAACTACTATAATCAGATGTTATAGCTTCGTACA; value = 548 a.u.
Strand = TGTACGAAGCTATATTACGTGGGTATAGTAGTTAGG; value = 506 a.u.
Strand = CTAGGAAAACGTATACACGTCACATATCACACATTC; value = 565 a.u.
Strand = CTATCTAATCTCGGTGACATCATTCCAAATGATTTC; value = 521 a.u.
Strand = CTAATTGCATTTCGTTACATGATCAAACAATTCTTC; value = 588 a.u.
Strand = TGTACGAAGCTATGACGCGTGGATATAGTAGTTAGG; value = 554 a.u.
Strand = CTAAAAAAAGCCAATCACGTGATCAGGAAGATTTTC; value = 48700 a.u.
Strand = CTATCGTGCCGTCATCACCATCGATTTGAATATTTC; value = 549 a.u.
Strand = CTAAGAAAAAAATACTAGGTGACATTTTAGAGATTC; value = 503 a.u.
Strand = GAATTATTCACTGCAAACATGTGAAAAATTCCATAG; value = 632 a.u.
Strand = CTAAATAATTAGTATCCCGTGATTTTGAGCTGTTTC; value = 1830 a.u.
Strand = CTAGTTAAGCATAACAAGCACGTGCTGCAGATGTTC; value = 15400 a.u.
Strand = CTAGTCAGGAGGGTGCACGTTGAAGCAGTGCGTTTC; value = 569 a.u.

Set 5
Target: Ras GTPase-activating protein-binding protein 1, full length (G3BP1, Homo sapiens, UniProt Q13283)
Sequence of UniProt Q13283 (whole entry, looked up): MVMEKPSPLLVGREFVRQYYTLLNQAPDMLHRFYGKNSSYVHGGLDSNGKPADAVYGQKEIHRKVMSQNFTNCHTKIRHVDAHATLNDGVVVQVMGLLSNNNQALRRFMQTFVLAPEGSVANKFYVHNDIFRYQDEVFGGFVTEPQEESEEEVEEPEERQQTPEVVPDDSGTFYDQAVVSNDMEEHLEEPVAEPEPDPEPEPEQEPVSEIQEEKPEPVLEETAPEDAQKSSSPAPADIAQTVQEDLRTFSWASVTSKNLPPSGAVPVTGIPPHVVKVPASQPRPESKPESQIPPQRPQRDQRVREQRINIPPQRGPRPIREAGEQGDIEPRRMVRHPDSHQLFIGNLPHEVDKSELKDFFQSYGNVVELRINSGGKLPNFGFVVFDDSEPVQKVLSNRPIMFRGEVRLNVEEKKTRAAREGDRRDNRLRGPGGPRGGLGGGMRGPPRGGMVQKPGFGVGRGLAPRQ
Technique: RNA Bind-n-Seq
Molecule type: RNA
Matrix: in vitro
Tested at: 200 nM
Notes: whole 134-nt RNA, ends assumed
Added: 150 mM LiCl
Relative to: input library
Direction: higher = stronger binding
Quantity: log2 enrichment
All molecules: 7-deaza-guanosine replaces G
Constant ends, left off below: GGGAGUUCUACAGUCCGACGAUC … UGGAAUUCUCGGGUGUCAAGG
Strand = UGGGAGACGAUCGCGAUGAACACGGUGCUGUCGCGGGCGAACUCACUGUUCGCCUUCUCGCUGAGCGUGAUGGCGGCGCUCACCUUCGGC; value = -1.32
Strand = UCCUAGUCCUAGGAAAACUCCAGUUGCCAGUGAUCAACGCCGUAGGUCCUGCAAAACAGCCCCUGCUUCCAGCAGCAAAUCUCAGACAGA; value = 0.0836
Strand = UCAAGUCCUGUGCUACACAUCGUAUGUACCGAAUCGGGAGGGUUUUUGGGAGGGAAAGUAUUAUGUUACGCCGUUCGGAUCUGCACUUCC; value = 0.182
Strand = UGGGAGGUGGAUUUUGUUUAUUUUUUUAGCUCAUUUGCAGGGGUGGGAAUUUUUUUUUAAUAUGUGUCAUGAAUAAAGUUGUUUUUGAAA; value = 0.687
Strand = UGGACGAUGAAGAGGAAACAAUUGAAGAGGAGGAAGCAAAUGAAGGCGUUGUGGACCACCAAACAGAACUUUCUAAUUUAGCCAAGGAAG; value = -0.501
Strand = AAGUCCUGUGCUACACAUCGUAUGUACCGAAUCGGCCCCCGGCCCCCGGCCCCCGGAAAGUAUUAUGUUACGCCGUUCGGAUCUGCACUU; value = 0.0715
Strand = CCUGUGCUACACAUCGUAUGUACCGAAUCGGGGUUUUUUUGGGGAGGGGAAAAAAAGGGGAAAGUAUUAUGUUACGCCGUUCGGAUCUGC; value = 0.563
Strand = GCAGGAAGUAAAAACAAAUGGAAAUGCUUCGGAUAGUGGCAGGGGUGGGGGUUGCUAAGGAAAGGGUGGGAUGGGAGUGGGUAAAGUGUU; value = 0.349
Strand = GUCCUGUGCUACACAUCGUAUGUACCGAAUCAAACCCAAAUUUUUAAAUUUUUUUAAAAAAGUAUUAUGUUACGCCGUUCGGAUCUGCAC; value = -1.1
Strand = CAAGUCCUGUGCUACACAUCGUAUGUACCGAAUCGGGUUUUUGGGAGGGAAAGGGAAAGUAUUAUGUUACGCCGUUCGGAUCUGCACUUC; value = 0.00211
Strand = ACCAUGCAGGUGGGCAUCUUUGGGAAGUGGGGCAAGGGGGGGAUAGGGAGGGAAAUAACACUUUGGGAACAGGUGGUCCCAGGUCGUUUC; value = 0.266
